Published values from different studies.
Numbered parts are unrelated; each lists some results of a single study.

Block 1 — mode: inhibitor; concentration: 20 µM
Target: Replicase polyprotein 1ab, nsp13 helicase (rep, Severe acute respiratory syndrome coronavirus 2, UniProt P0DTD1)
`CCOc1ccn(-c2ccc(F)cc2)c(=O)c1C(=O)Nc1ccc(Oc2ccnc(N)c2Cl)c(F)c1` gave an inhibition of 4.22%.
`CC(C)(C)NCC(O)c1cc(Br)no1` (stereo not drawn) has an inhibition of 7.46%.
For `CCOC(=O)[C@H](CCc1ccccc1)N[C@@H](C)C(=O)N1C(=O)N(C)C[C@H]1C(=O)O`, the inhibition was 0.53%.
For `Nc1cc(C(Cl)=C(Cl)Cl)c(S(N)(=O)=O)cc1S(N)(=O)=O`, the inhibition was 2.8%.
With `Cc1nc(NS(=O)(=O)c2ccc(N)cc2)oc1C` the inhibition was 1.11%.
`Cc1c(N(C)CS(=O)(=O)O)c(=O)n(-c2ccccc2)n1C` has an inhibition of 1.7%.
`NNC(=O)CSc1nc2scc(-c3ccccc3)c2c(=O)n1-c1ccccc1` gave an inhibition of 5.01%.
The inhibition of `CC[C@H](CC[C@@H](C)[C@H]1CC[C@H]2[C@@H]3CC=C4C[C@@H](O[C@@H]5O[C@H](CO)[C@@H](O)[C@H](O)[C@H]5O)CC[C@]4(C)[C@H]3CC[C@]12C)C(C)C` is reported as 2.89%.
For `Cc1cccc(-c2[nH]ncc2-c2ccc(F)c(-c3cnn(CCO)c3)c2)n1`, the inhibition was 7.57%.
The inhibition of `CN(C)CCNc1nc2cc(O)ccc2c2c1C(=O)c1ccccc1-2` is reported as 103%.
For `CCN(CC)C(=O)N1CCN(C)CC1`, the inhibition was 1.93%.
The inhibition of `COC(=O)C(Cc1ccc(OCCn2c(=O)sc3cc(C(=O)c4ccccc4)ccc32)cc1)C(=O)OC` is reported as -0.41%.
For `CC1(C)[C@@H](OC(=O)CCC(=O)O)CC[C@]2(C)[C@H]3C(=O)C=C4[C@@H]5C[C@@](C)(C(=O)O)CC[C@]5(C)CC[C@@]4(C)[C@]3(C)CC[C@@H]12`, the inhibition was 10.5%.
`COc1cc(OC)c(C(=O)CCCCN2CCC3(CC2)NC(=O)NC3=O)cc1NS(=O)(=O)c1ccc(C(F)(F)F)cc1` gave an inhibition of 0.19%.
The inhibition of `NCC1CC(=O)N(Cc2ccccc2)C1` (stereo not drawn) is reported as 5.07%.
`NC(=O)[C@@H](CCC(F)(F)F)N(Cc1ccc(-c2ncon2)cc1F)S(=O)(=O)c1ccc(Cl)cc1` has an inhibition of 9.53%.
`CC(=O)OCC(=O)[C@H]1CC[C@H]2[C@@H]3CC[C@H]4C[C@H](O)CC[C@]4(C)[C@H]3C(=O)C[C@]12C` gave an inhibition of 5.33%.
For `CCCCNc1ncc2c(-c3ccc(CN4CCN(C)CC4)cc3)cn([C@H]3CC[C@H](O)CC3)c2n1`, the inhibition was 19.8%.
The inhibition of `COc1ccc(C2CNC(=O)NC2)cc1O[C@H]1C[C@@H]2CC[C@H]1C2` is reported as -4.62%.
`CC1(C)[C@@H](O)CC[C@]2(C)[C@H]3C(=O)C=C4[C@@H]5C[C@@](C)(C(=O)O)CC[C@]5(C)CC[C@@]4(C)[C@]3(C)CC[C@@H]12` gave an inhibition of -1.32%.
The inhibition of `COc1ccc(S(=O)(=O)N2CCCN(S(=O)(=O)c3ccc(OC)c(OC)c3)CC2)cc1OC` is reported as 2.05%.
The inhibition of `CCN(CC)CCNC(=O)c1cc(Br)c(N)cc1OC` is reported as 6.53%.
With `O=C(O)CCCCN(CCc1ccccc1OCc1ccc(CCc2ccccc2)cc1)Cc1ccc(C(=O)O)cc1` the inhibition was 10.8%.
`CCc1cn([C@H]2C[C@H](O)[C@@H](CO)O2)c(=O)[nH]c1=O` has an inhibition of 0.97%.
With `COC[C@@H](c1ccc(C(F)(F)F)cc1)N1CCN(C2(C)CCN(C(=O)c3c(C)ncnc3C)CC2)C[C@@H]1C` the inhibition was 2.14%.

Block 2 — technique: RNA Bind-n-Seq; molecule type: RNA; matrix: in vitro; concentration: not given; relative to: input RNA pool; reading: higher = stronger binding
Target: RING finger protein unkempt homolog, zinc fingers 1-6, GST-SBP tag (UNK, Homo sapiens, UniProt Q9C0B0, residues 30-357)
Setting: RNA with constant flanks, human and mouse sites, ends assumed
All sequences stand within: GGGAGUUCUACAGUCCGACGAUC … CAACAGAGGAUUGAGCAUCA
Residues (chain): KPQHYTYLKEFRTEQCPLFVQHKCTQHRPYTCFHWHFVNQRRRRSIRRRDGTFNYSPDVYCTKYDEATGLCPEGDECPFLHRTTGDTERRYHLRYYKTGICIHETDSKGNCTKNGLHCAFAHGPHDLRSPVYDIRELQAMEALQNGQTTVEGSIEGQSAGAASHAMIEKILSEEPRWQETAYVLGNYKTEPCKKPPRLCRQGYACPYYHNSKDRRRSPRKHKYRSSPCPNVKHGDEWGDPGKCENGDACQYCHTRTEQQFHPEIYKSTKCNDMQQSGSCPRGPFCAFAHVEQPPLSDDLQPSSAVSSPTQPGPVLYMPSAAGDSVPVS
With `GAAAAUGAGCAGAUACUGAAUGUAAACCCUGCAGAUCCUGAUAACUUAAGUGACUCUCUCUUUUCCGGUGAUGAAGAAAAUGCUGGGACUGAGGAAAUAAAGAAUGAAAUAAAUGGAAAU` the bound/input enrichment was 0.261 ratio.
`UGUGACUGUGAGGAGGGUGGGAGUGUGGAUGGGGAGGAAGGUUCUAGGCUCUCUUAUUUUUCUCAUUUCCCAAUGCCUCUCUGUGGGAGAGCUCCAUGCCAGUUUUCACCACGCUCAGGC` has a bound/input enrichment of 0.162 ratio.
The bound/input enrichment of `AGGCUCGUACUCAGUGGGGAGAAGAAAGAGCAAGCAGGCCAGAUGCCUGAGACUGCUGCAGGAGAGCCCACCCCAGAGCCUCCUCGGACUUCAUCACCCACCAGCCUUCCUCCACUUGCC` is reported as 0.0563 ratio.
The bound/input enrichment of `GUUAUUUUAAUAAUUCCUUUAAAUUUUAUCUGUUGCUGUUACCUCUUGAAAUAUGAUUUAUUUAGAUUGCUAAUCCCACUCAUUCAGGAAAUGCCAAGAGGUUUUCUGUGGGGGAAAUGG` is reported as 4.5 ratio.
`GAUUAUACGUGGAAUUUACUAAAAGCUGGGAAAAUACCAGAGGAAUUUAAUGUAUUUAAUUUAAUACAAGAAAUGAGAACACAAAGGCAUUCUGCAGUACAAACAAAGGAGCAAUAUGAA` has a bound/input enrichment of 0.228 ratio.
`AUCACCAUGUUGGAAGCAGCACUGGGACUUGAGCGAGCUCACAUGGGAAUGUUUACUGAAUUAGCUAUUCUAUACUCUAAAUUUAAGCCUCAGAAAAUGAGGGAGCACCUGGAGCUGUUC` has a bound/input enrichment of 0.885 ratio.
`CAGUGGUUGAAAACAAAGUUCUGUUUCAGAAAGAAUGAGGAGGGUUGUGAGCUGUGUGUGAAAGAUAAGGACUGAAGAUGUGGGGACAAGCUUGUUUGAAGUGAUGCUUGGCCAGUGAAC` has a bound/input enrichment of 0.543 ratio.
`AGUGACUUCAAAGGGAAAUCAAGGAAAGACCAGUUUGCAUUUAUGCGAAAUCUGUGGUUGUAAAUUUUUUUUUUUUUACUUGAAGUUAAAUUUGUCUCUGGAGUUGGUAUAGCAGCAGUU` has a bound/input enrichment of 0.469 ratio.

Block 3 — technique: RNA Bind-n-Seq; molecule type: RNA; matrix: in vitro; concentration: 200 nM; setting: whole 134-nt RNA, ends assumed; with: 150 mM KCl; relative to: input library; reading: higher = stronger binding
Target: Ras GTPase-activating protein-binding protein 1, full length (G3BP1, Homo sapiens, UniProt Q13283)
Sequence of UniProt Q13283 (whole entry, looked up): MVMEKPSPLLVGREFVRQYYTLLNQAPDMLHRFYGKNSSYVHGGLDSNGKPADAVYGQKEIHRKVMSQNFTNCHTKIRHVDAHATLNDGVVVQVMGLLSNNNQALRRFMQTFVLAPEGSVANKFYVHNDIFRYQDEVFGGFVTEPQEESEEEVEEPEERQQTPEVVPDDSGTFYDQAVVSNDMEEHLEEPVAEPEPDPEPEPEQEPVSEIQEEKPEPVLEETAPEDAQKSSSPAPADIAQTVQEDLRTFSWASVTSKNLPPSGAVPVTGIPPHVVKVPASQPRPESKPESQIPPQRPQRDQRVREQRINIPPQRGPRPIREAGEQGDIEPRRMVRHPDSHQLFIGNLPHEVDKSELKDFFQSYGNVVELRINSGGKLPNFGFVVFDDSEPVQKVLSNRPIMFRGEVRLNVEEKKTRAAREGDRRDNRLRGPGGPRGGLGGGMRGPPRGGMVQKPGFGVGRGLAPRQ
All sequences stand within: GGGAGUUCUACAGUCCGACGAUC … UGGAAUUCUCGGGUGUCAAGG
`UGGCCCUGGUGGCAUGCGGGGAGGAAGAGGUGGCCUCAUGGAUCGGGGUGGUCCCGGUGGAAUGUUCAGAGGUGGCCGUGGUGGAGACAG` gave a log2 enrichment of -0.107.
The log2 enrichment of `UCCUGUGCUACACAUCGUAUGUACCGAAUCGGGGUUUUUUGGGUUUUUUGGGUUUUUUGGAAAGUAUUAUGUUACGCCGUUCGGAUCUGC` is reported as -0.258.
`UAACUUUGGAGGAGGAUCUGAUGGAUAUGGCAGUGGACGUGGAUUUGGGGAUGGCUAUAAUGGGUAUGGAGGAGGACCUGGAGGUGGCAA` has a log2 enrichment of 0.339.
`CCUGUGCUACACAUCGUAUGUACCGAAUCGGGAAAAAAAGGGUUUUUUUGGGUUUUUGGGAAAGUAUUAUGUUACGCCGUUCGGAUCUGC` has a log2 enrichment of -1.12.
`CUGUGCUACACAUCGUAUGUACCGAAUCAAACCCCCCCAAACCCCCCCAAAUUUUUUUAAAAAAGUAUUAUGUUACGCCGUUCGGAUCUG` has a log2 enrichment of 0.707.
With `GCAGGAAGUAAAAACAAAUGGAAAUGCUUCGGAUAGUGGCAGGGGUGGGGGUUGCUAAGGAAAGGGUGGAAUGGGAGUGGGUAAAGAGUU` the log2 enrichment was 0.935.
With `CCUCAAGUCCUGUGCUACACAUCGUAUGUACCGAAUCGGGGCCGGCCGGCCGGAAAGUAUUAUGUUACGCCGUUCGGAUCUGCACUUCCA` the log2 enrichment was -0.374.
For `CCUGUGCUACACAUCGUAUGUACCGAAUCGGCCCCCCCGGGGCCCCCCCGGCCCCCCCGGGAAAGUAUUAUGUUACGCCGUUCGGAUCUG`, the log2 enrichment was -0.358.

Block 4 — effect on: enzyme activity; mode: inhibitor; concentration: 20 µM; setting: primary screen
Target: Replicase polyprotein 1ab, main protease (rep, Severe acute respiratory syndrome coronavirus 2, UniProt P0DTD1)
The inhibition of `O=[N+]([O-])c1ccc(Sc2cccc[n+]2[O-])c2nonc12` is reported as 102%.
`O=C1c2cccc(O)c2C(=O)c2c(O)cccc21` has an inhibition of 25.2%.
`O=C(O)[C@H]1O[C@@H](Oc2cc3oc(-c4ccccc4)cc(=O)c3c(O)c2O)[C@H](O)[C@@H](O)[C@@H]1O` gave an inhibition of 67.8%.
`CN(C)[C@@H]1C(=O)C(C(N)=O)C(=O)[C@@]2(O)C(=O)C3C(=O)c4c(O)cccc4[C@@](C)(O)[C@H]3[C@H](O)[C@@H]12` (stereo partly drawn) gave an inhibition of 59.6%.
The inhibition of `[NH2][Pt]([NH2])([Cl])[Cl]` is reported as 100%.

Block 5 — technique: protein binding microarray; molecule type: double-stranded DNA, one strand shown; matrix: in vitro; concentration: not given; relative to: not given; reading: higher = stronger binding
Target: Histone acetyltransferase KAT6A, winged helix 1, GST fusion (KAT6A, Homo sapiens, UniProt Q92794, residues 1-85)
Setting: 8-mer, flanks averaged, mean of 2 arrays, mostly near background
Target sequence (chain): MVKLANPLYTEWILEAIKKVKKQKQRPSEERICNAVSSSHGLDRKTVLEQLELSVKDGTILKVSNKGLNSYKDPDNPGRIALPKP
`ACCGGAAT` gave an E-score of 0.102.
`CCAGATGG` has an E-score of -0.229.
The E-score of `GAAGAGGC` is reported as 0.0118.
With `TTCTAGAA` the E-score was -0.21.
`ACAGCTGA` has an E-score of -0.189.
`GCCACCGA` has an E-score of -0.0152.
With `GCGCTAAC` the E-score was 0.301.
The E-score of `GGTCCGTA` is reported as 0.239.

Block 6 — cell line: HEK-293T; effect on: pseudovirus infection; technique: FDA-approved drug library screen; organism: VSV pseudotyped with SARS-CoV-2 spike; concentration: 10 µM; time: 16 h; relative to: vehicle-treated
With `CC(C)Cn1cnc2c(N)nc3ccccc3c21` the GFP-positive cells was 80%.
With `CO/N=C(\C(=O)N[C@@H]1C(=O)N2C(C(=O)OC(C)OC(C)=O)=C(COC(N)=O)CS[C@H]12)c1ccco1` (stereo partly drawn) the GFP-positive cells was 71.7%.
The GFP-positive cells of `CC[C@@H](C(N)=O)N1CCCC1=O` is reported as 80.9%.

For quick reference, copied from above (block 2):
The bound/input enrichment of `GUUAUUUUAAUAAUUCCUUUAAAUUUUAUCUGUUGCUGUUACCUCUUGAAAUAUGAUUUAUUUAGAUUGCUAAUCCCACUCAUUCAGGAAAUGCCAAGAGGUUUUCUGUGGGGGAAAUGG` is reported as 4.5 ratio.
`GAUUAUACGUGGAAUUUACUAAAAGCUGGGAAAAUACCAGAGGAAUUUAAUGUAUUUAAUUUAAUACAAGAAAUGAGAACACAAAGGCAUUCUGCAGUACAAACAAAGGAGCAAUAUGAA` has a bound/input enrichment of 0.228 ratio.
`AUCACCAUGUUGGAAGCAGCACUGGGACUUGAGCGAGCUCACAUGGGAAUGUUUACUGAAUUAGCUAUUCUAUACUCUAAAUUUAAGCCUCAGAAAAUGAGGGAGCACCUGGAGCUGUUC` has a bound/input enrichment of 0.885 ratio.
`CAGUGGUUGAAAACAAAGUUCUGUUUCAGAAAGAAUGAGGAGGGUUGUGAGCUGUGUGUGAAAGAUAAGGACUGAAGAUGUGGGGACAAGCUUGUUUGAAGUGAUGCUUGGCCAGUGAAC` has a bound/input enrichment of 0.543 ratio.
